Results gathered from unrelated publications.
Lines come from different studies, so protocols differ. “And” joins repeats or separate records; there may be more than shown. ± gives the spread as reported.

Compound	assay	system	setting	scale	quantity	result
Cc1nc(C)c(-c2ccnc(Nc3ccc(N(C)C)c([N+](=O)[O-])c3)n2)s1		octanol/buffer, 40 mM buffer	pH 11		logP	4.07
Cc1cc(C)c(CNC(=O)c2cc(Cl)c3c(c2C)O[C@@](C)([C@H]2CC[C@H](N(C)C)CC2)O3)c(=O)[nH]1	CTCAE v4.0, refers to: productive cough	human relapsed/refractory NHL	oral, 200 mg once daily, onset after cycle 1 day 1, overall treatment period		patients with grade ≥3 TEAE	4.2%
COc1ccc2c(C)nc(Nc3nc(C)cc(O)n3)nc2c1		octanol/buffer	pH 11, known kinase inactives set		logP	1.61
Cc1cc(NC2CCN(C(=O)OC3CCN(C(=O)/C=C/CN(C)C)C3)CC2)n2ncc(C(C)C)c2n1 (centres unmarked)		patients with advanced solid tumours	dose not given, QD arm, grade 3 or higher		patients with Asthenia	0%
Cc1nc(-c2ccc(OCC(C)C)c(C#N)c2)sc1C(=O)O		human, plasma	oral, 10 mg, with: verinurad 5 mg	baseline: test over reference	geometric mean ratio Cmax	101
C=CC(=O)NC1CCN(c2ncc3ncnc(Nc4ccc(Oc5ccc6c(c5)ncn6C)c(C)c4)c3n2)CC1		healthy male volunteers, plasma	oral, 60 mg, tablet		dose-normalised Cmax	16.6 pmol/L/µg
O=C(O)CCC(=O)O.[2H]C([2H])([2H])Oc1cc(C)c2[nH]ccc2c1CN1CC[C@@H](C2CC2)C[C@H]1c1ccc(C(=O)O)cc1	multiple ascending dose	healthy Chinese subjects	50 mg twice daily		subjects with elevated AST TEAE	0%
Nc1ccn([C@@H]2CS[C@H](CO)O2)c(=O)n1		Tat+ transgenic mouse, striatum	subcutaneous osmotic pump, dose not given, 5 d		drug concentration	26700 ± 4900 ng/g
O=C1CC[C@H](N2Cc3cc(N4CCN(CC5CCN(c6ccc([C@@H]7c8ccc(O)cc8CC[C@@H]7c7ccccc7)cc6)CC5)CC4)ccc3C2=O)C(=O)N1		EpiIntestinal microtissues	40 µM, 3 h		intracellular concentration	7.2 µM
Cc1cccc(CNC(=O)c2cn(CCNC(=O)c3ccccc3Sc3c([N+](=O)[O-])ncn3C)c3cc4c(cc3c2=O)OCO4)n1		cynomolgus monkey, whole blood	1 µM, 0.5 h		remaining compound	95.5%
O=C(Nc1nc2cccc(-c3ccc(CN4CCS(=O)(=O)CC4)cc3)n2n1)C1CC1	refers to: aspartate aminotransferase increased	human rheumatoid arthritis patients	oral, 150 mg once daily, 4 weeks, regardless of relatedness		treatment-emergent adverse events	0%
NC1(C(=O)N[C@@H](CCO)c2ccc(Cl)cc2)CCN(c2nc[nH]c3nccc2-3)CC1		human, plasma	oral, 320 mg twice daily, with: enzalutamide 160 mg daily		dose-normalised Cmax	225 ng/mL and 408 ng/mL and 479 ng/mL
COc1cccc(OC)c1-c1cc(C(=O)NC2(C(=O)O)C3CC4CC(C3)CC2C4)nn1-c1ccc(C(=O)N(C)CCCN(C)CCCN(C)C(=O)CN2CCN(CC(=O)[O-])CCN(CC(=O)[O-])CCN(CC(=O)[O-])CC2)cc1C(C)C.[177Lu+3] (centres unmarked)		mouse, HT-29 xenograft, heart	72 h post injection		tissue uptake	0.089 %ID/g
CNC(=O)n1ccc2cc(Oc3ccnc(NC(=O)c4ccc(C5CCN(CCO)CC5)cc4)c3)c(OCCOC)cc21		healthy human, plasma	oral, 35 mg, high-fat meal		AUC(0-72 h)	92.8 ng·h/mL
CC(=O)c1ccc([C@H]2C[C@@]3(C)[C@@H](CC[C@@]3(O)C(F)(F)C(F)(F)F)[C@@H]3CCC4=CC(=O)CCC4=C32)cc1		human, pooled serum	oral, 200 mg, day 1, 0.5 h		serum concentration	9.5 ng/mL
CCn1c(=O)c(-c2cc(NC(=O)Nc3ccccc3)c(F)cc2Br)cc2cnc(NC)cc21	refers to: gastrointestinal disorders	human, moderate hepatic impairment	oral, 50 mg single dose		participants with drug-related TEAE	0%
CCN1/C(=C/C(C)=O)Sc2ccc(F)cc21		cynomolgus monkey	oral, 100 mg/kg, 6 h post-dose		heart rate	94 ± 21 beats/min
NS(=O)(=O)c1ccc(NN=C2C(=O)Nc3ccc(C(=O)O)cc32)cc1		octanol/buffer, 40 mM buffer	pH 11		logP	-1.5
N#Cc1ccc2c(c1)[C@H]1CCCN(C(=O)c3ccc4[nH]cnc4c3)[C@H]1C2		human	20 mg, end of trial	baseline: baseline	ACTH level change	-0.1 pmol/L
NCc1cc2c(cc1F)C(=O)N(C1CCC(=O)NC1=O)C2 (centres unmarked)		male cynomolgus monkey, whole blood	3 h		remaining compound	< 1%

A few entries again:
Compound	assay	system	setting	scale	quantity	result
O=C1CC[C@H](N2Cc3cc(N4CCN(CC5CCN(c6ccc([C@@H]7c8ccc(O)cc8CC[C@@H]7c7ccccc7)cc6)CC5)CC4)ccc3C2=O)C(=O)N1		EpiIntestinal microtissues	40 µM, 3 h		intracellular concentration	7.2 µM
Cc1nc(-c2ccc(OCC(C)C)c(C#N)c2)sc1C(=O)O		human, plasma	oral, 10 mg, with: verinurad 5 mg	baseline: test over reference	geometric mean ratio Cmax	101
COc1cccc(OC)c1-c1cc(C(=O)NC2(C(=O)O)C3CC4CC(C3)CC2C4)nn1-c1ccc(C(=O)N(C)CCCN(C)CCCN(C)C(=O)CN2CCN(CC(=O)[O-])CCN(CC(=O)[O-])CCN(CC(=O)[O-])CC2)cc1C(C)C.[177Lu+3] (centres unmarked)		mouse, HT-29 xenograft, heart	72 h post injection		tissue uptake	0.089 %ID/g
